Assay results pooled from the literature.
Compare with care: the assays were run in different laboratories. Values joined by “and” are separate records of one study, mostly repeats; a detail may differ. ± marks the error that the study gave.

[Cl-].[Cl-].[Pt+2].[Ru+2].c1ccc(-c2nc3cc4ccccc4cc3nc2-c2ccccn2)nc1.c1cnc2c(c1)ccc1cccnc12.c1cnc2c(c1)ccc1cccnc12  activation enthalpy (concentration not given, second substitution step, together with: L-methionine): 6.45 ± 0.478 kcal/mol
O=C(c1ccc(OCCN2CCCCC2)cc1)c1c(-c2ccc(O)cc2)sc2cc(O)ccc12  paw licking time (male ICR-CD1 mice, formalin test; intracerebroventricular, 100 µg/animal, 15 to 20 min): 0 s
Nc1nc(C(F)(F)F)nc2c1nnn2C[C@H]1CN(Cc2nccs2)CCO1  Rankl mRNA level (RT-qPCR; Ocy454, mouse; 1 µM; baseline: 100 nM): increased
OC[C@H]1O[C@@H](c2ccc(Cl)c(Cc3ccc(O[C@H]4CCOC4)cc3)c2)[C@H](O)[C@@H](O)[C@@H]1O  systolic blood pressure change (Japanese type 1 diabetes patients; 2.5 mg, day 7, 168 h; baseline: baseline): 2 mmHg
CC(=O)O[C@H]1C(=O)[C@@]2(C)[C@H]([C@H](OC(=O)c3ccccc3)[C@]3(O)C[C@H](OC(=O)[C@H](O)[C@@H](NC(=O)c4ccccc4)c4ccccc4)C(C)=C1C3(C)C)[C@]1(OC(C)=O)CO[C@@H]1C[C@@H]2O  tumour volume (rats, DMBA-induced mammary tumours; dose not given, day 42): 0.25 ± 0.006 cm3
OC(CCN1CCCCC1)(c1ccccc1)C1CC2C=CC1C2 (stereo not drawn)  change in EEG Alpha1-power Fz-Cz (resting-state EEG; healthy elderly humans; oral, 2 mg, eyes open, LS mean; baseline: baseline): 26.4%
CC(C)NCC(O)c1ccc(O)c(O)c1 (stereo not drawn)  sarcomere length (ventricular cardiomyocytes, C57BL/6 mouse; dose not given, 0.816 s): 1.57 µm
Clc1ccc(-c2csc(NN=C3CCCC3)n2)cc1  viability (OCI-Ly1; 0.1 µM, 120 h): 104%
CN(C)C(=O)c1cc2cnc(Nc3ccc(N4CCNCC4)cn3)nc2n1C1CCCC1  GSEA enrichment score (RNA-seq GSEA, measured: HALLMARK_PEROXISOME; MB002 tumour; concentration not given, in vivo; baseline: vehicle, direction not given): 0.273
[Cl-].[Cl-].[Pt+2].[Ru+2].c1ccc(-c2nc3ccccc3nc2-c2ccccn2)nc1.c1cnc2c(c1)ccc1cccnc12.c1cnc2c(c1)ccc1cccnc12  activation enthalpy (concentration not given, first substitution step, together with: L-methionine): 6.21 ± 0.478 kcal/mol
O=C(NS(=O)(=O)C1CC1)c1cc2ccccc2n1Cc1ccc(C2CC2)c2ccccc12  serum uric acid decrease (mouse, acute hyperuricaemia model, serum; oral, 2 mg/kg; baseline: vehicle model): 74%
C[C@H](NC(=O)c1c(C(F)F)nn(C)c1Oc1cccc(C(F)(F)F)c1)c1ccc(C(=O)O)cc1  complete response (irRECIST; human, advanced tumours; 500 mg; best overall response): 0%
O=P(O)(O)C(Cl)(Cl)P(=O)(O)O  Iba1-positive area (Mus musculus, sham-operated, meninges; concentration not given, day 1; baseline: total area): 0.39% and 0.52% and 0.43%
COc1cc2nccc(Oc3ccc(NC(=O)c4cc5c(n(-c6ccccc6)c4=O)CCCC5=O)nc3)c2cc1OC  hazard ratio (MOLM-13 luc/GFP, mouse xenograft AML; in feed, 0.004% in feed; baseline: compound over control): 0.0498
Cc1cc(-c2nc(C(=O)Nc3cc4oc(N5CCOCC5)nc4nc3N3CC[C@@H](O)C3)co2)ccn1  Ki67 expression (immunohistochemistry; mouse, A20 PCNSL model; 100 mg/kg, day 7; baseline: vehicle): decreased
Cc1n[nH]c2ccc(-c3cc(OC[C@@H](N)Cc4ccccc4)cnc3-c3ccoc3)cc12  log2 fold change (kinase binding, competitor, MIB/MS competition, measured: RIO2; Candida albicans cell lysate; 1 µM; baseline: DMSO): -0.263
CC(C)c1c(C(=O)Nc2ccccc2)c(-c2ccccc2)c(-c2ccc(F)cc2)n1CC[C@@H](O)C[C@@H](O)CC(=O)O  plasma PCSK9 change (ELISA; cynomolgus monkey, female, plasma; 40 mg/kg or 25 mg/kg, day 86; baseline: pretreatment): 316%
CO[C@@H](C(=O)N1Cc2n[nH]c(NC(=O)c3ccc(N4CCN(C)CC4)cc3)c2C1)c1ccccc1  tumour regression (RECIST; human; concentration not given): 27%
COc1cc2cc(-c3ccc(CC(=O)Nc4cc(C(C)(C)C(F)(F)F)no4)cn3)cnc2cc1OC  objective response rate (RECIST v1.1; RET-altered advanced solid tumour patients; oral, 10 mg once daily, phase I): 0%
CC(C)[C@H](NC(=O)[C@H](Cc1ccc(O)cc1)NC(=O)[C@H](Cc1ccc(O)cc1)NC(=O)[C@@H]1CCCN1C(=O)[C@H](CCC(=O)O)NC(=O)[C@H](CCC(=O)O)NC(=O)[C@H](Cc1c[nH]c2ccccc12)NC(=O)[C@@H]1CCCN1C(=O)[C@@H](NC(=O)[C@H](CCC(N)=O)NC(=O)c1ccc2c(c1)C(=O)OC21c2ccc(O)cc2Oc2cc(O)ccc21)C(C)C)C(=O)N[C@H](C(=O)N[C@@H](CCCCN)C(=O)N[C@@H](CCCCN)C(=O)N[C@@H](CO)C(=O)N[C@@H](CO)C(=O)NCC(=O)NCC(N)=O)C(C)C  surgeons rating slightly improved (nerve discrimination; head and neck surgery patients; 500 mg; baseline: white light): 21.4%
CN[C@@H]1COc2c(S(=O)(=O)NC(=O)Nc3c4c(cc5c3CCC5)CCC4)cnn2C1  inhibition (measured: IL-18; human participants, whole blood ex vivo; 900 mg single dose, 48 h, IL-18, circulating, adjusted for, together with: LPS/ATP; baseline: baseline): 50.7%
Cc1noc(C)c1-c1cc(C(O)(c2ccccn2)c2ccccn2)c2nc(C3CC3)[nH]c2c1  maximum inhibition (measured: CCR2 expression; human, peripheral blood; 6 mg, day 8, 1599 study): 49%
N#Cc1ccc2c(-c3ccncc3)c(-c3ccc(F)cc3)nn2c1  log2 fold change (kinase binding, competitor, MIB/MS competition, measured: ENV7; Candida albicans cell lysate; 10 µM; baseline: DMSO): 0.819
CC1=CC(=O)CC(C)(C)[C@@]1(O)/C=C/C(C)=C\C(=O)O  viability (OCI-Ly1; 0.1 µM, 120 h): 4.61%
FC(F)(F)Oc1cccc(-c2cnc3ccc(-c4ccncc4)nn23)c1  tumour size (MDA-MB-231 xenograft, NSG mouse; oral, 10 mg/kg daily, day 8; higher = larger tumour): 0.0907 a.u. and 0.04 a.u. and 0.137 a.u. and 0.172 a.u. and 0.075 a.u.
COc1cc(Nc2ncc3c(n2)-c2ccc(Cl)cc2C(c2c(F)cccc2OC)=NC3)ccc1C(=O)O  relative tumour volume T/C (mouse, KT-10 Wilms tumour xenograft; oral, 2.6 mg/kg, day 7; baseline: vehicle): 2.39
CCc1oc2ccccc2c1C(=O)c1cc(Br)c(O)c(Br)c1  serum uric acid (mouse, acute hyperuricaemia model; 1 mg/kg): 980 ± 208 µM
COc1ncc(-c2nc3c(n2C(C)C)[C@H](c2ccc(Cl)cc2)N(c2cc(Cl)cn(C)c2=O)C3=O)c(OC)n1  best overall response (International Working Group criteria; human acute myeloid leukemia patients; oral, 350 to 400 mg, response CR, high-dose, other doses): 8.3%
c1ccc(-c2n[nH]cc2-c2ccnc3ccccc23)nc1  log2 fold change (kinase binding, competitor, MIB/MS competition, measured: HRR25; Candida albicans cell lysate; 1 µM; baseline: DMSO): 0.587
CO[C@H]1CC[C@H](N2C(=O)CNc3ncc(-c4ccc(C(C)(C)O)nc4)nc32)CC1  pS6RP change from baseline (flow cytometry; stimulated B cells, human, blood; 60 mg single dose, 24 h, median; baseline: baseline): -3.9%
CSCCNc1nc(SCCC(F)(F)F)nc2c1ncn2[C@@H]1O[C@H](COP(=O)(O)OP(=O)(O)C(Cl)(Cl)P(=O)(O)O)[C@@H](O)[C@H]1O  high residual platelet reactivity (ADP-induced platelet aggregation, light transmittance aggregometry; human patients, platelet-rich plasma; dose not given, 3 h, aggregation above 59%, together with: ADP 20 µM; baseline: patients): 81.6%
O=C(O)CSc1nnc(Br)n1-c1ccc(C2CC2)c2ccccc12  serum uric acid decrease (mouse, acute hyperuricaemia model, serum; oral, 2 mg/kg; baseline: vehicle model): 41.1%
C[C@H]1C[C@H]2CSC(N)=N[C@@]2(c2nc(NC(=O)c3ccc(OC(F)F)cn3)cs2)CO1  plasma Aβ1-40 change (healthy adults, fed, plasma; oral, 200 mg single dose, 6 h; baseline: baseline, placebo-adjusted): -77.1%
C[C@@H](O)CCOC(=O)C[C@@H](C)O  metabolite level (measured: C18:1 acylcarnitine; human, plasma; 60 min, log2-transformed values): -3.23 ± 0.45 µmol/L
O=C(O)CNC(=O)Cc1ccccc1  sarcomere length (ventricular cardiomyocytes, C57BL/6 mouse; dose not given, 0.36 s): 1.72 µm
CC(=O)NCC(=O)NCC(=O)N[C@H](C(=O)N[C@@H](Cc1ccc(O)cc1)C(=O)N[C@@H](CO)C(=O)N[C@H]1CSSC[C@@H](C(=O)N[C@@H](CCCNC(=N)N)C(=O)N2CCC[C@H]2C(=O)N[C@@H](CCC(N)=O)C(=O)N[C@@H](CCCNC(=N)N)C(=O)NCC(=O)NCCC(=O)N[C@@H](CCCCNC(=O)CN(CC(=O)NCCCC[C@H](NC(=O)CCNC(=O)CNC(=O)[C@H](CCCNC(=N)N)NC(=O)[C@H](CCC(N)=O)NC(=O)[C@@H]2CCCN2C(=O)[C@H](CCCNC(=N)N)NC(=O)[C@@H]2CSSC[C@H](NC(=O)[C@H](CO)NC(=O)[C@H](Cc3ccc(O)cc3)NC(=O)[C@@H](NC(=O)CNC(=O)CNC(C)=O)[C@@H](C)O)C(=O)N[C@@H](Cc3c[nH]cn3)C(=O)N[C@@H](Cc3ccccc3)C(=O)NCC(=O)N[C@@H](C)C(=O)N[C@@H](CC(C)C)C(=O)N[C@@H]([C@@H](C)O)C(=O)N[C@@H](Cc3c[nH]c4ccccc34)C(=O)N[C@@H](C(C)C)C(=O)N2)C(N)=O)C(=O)CCN)C(N)=O)NC(=O)[C@H](C(C)C)NC(=O)[C@H](Cc2c[nH]c3ccccc23)NC(=O)[C@H]([C@@H](C)O)NC(=O)[C@H](CC(C)C)NC(=O)[C@H](C)NC(=O)CNC(=O)[C@H](Cc2ccccc2)NC(=O)[C@H](Cc2c[nH]cn2)NC1=O)[C@@H](C)O  haemoglobin (healthy BALB/c mice; subcutaneous, 0.16 mg/kg, 4 d, single dose): 158 g/L
O=S(=O)(NCCNC/C=C/c1ccc(Br)cc1)c1cccc2cnccc12  two-cell embryos (embryonic development; mouse zygotes; 20 µM, 48 h post-hCG): 95% and 100%
O=C(NS(=O)(=O)c1ccccc1)c1cc2ccccc2n1Cc1ccc(Br)c2ccccc12  serum uric acid (male mouse, acute hyperuricaemia model, serum; oral, 2 mg/kg, 4 h): 270 ± 49.1 µM
C[C@H](Oc1ccc(Br)cc1-c1ccon1)C(=O)O  difference from placebo (muscle velocity recovery cycle; human, tibialis anterior muscle; 200 mg once daily, first response latency at 30 Hz, multiple ascending dose): 0.27%

Excerpt of the above:
N#Cc1ccc2c(-c3ccncc3)c(-c3ccc(F)cc3)nn2c1  log2 fold change (kinase binding, competitor, MIB/MS competition, measured: ENV7; Candida albicans cell lysate; 10 µM; baseline: DMSO): 0.819
CC1=CC(=O)CC(C)(C)[C@@]1(O)/C=C/C(C)=C\C(=O)O  viability (OCI-Ly1; 0.1 µM, 120 h): 4.61%
FC(F)(F)Oc1cccc(-c2cnc3ccc(-c4ccncc4)nn23)c1  tumour size (MDA-MB-231 xenograft, NSG mouse; oral, 10 mg/kg daily, day 8; higher = larger tumour): 0.0907 a.u. and 0.04 a.u. and 0.137 a.u. and 0.172 a.u. and 0.075 a.u.
COc1cc(Nc2ncc3c(n2)-c2ccc(Cl)cc2C(c2c(F)cccc2OC)=NC3)ccc1C(=O)O  relative tumour volume T/C (mouse, KT-10 Wilms tumour xenograft; oral, 2.6 mg/kg, day 7; baseline: vehicle): 2.39
CCc1oc2ccccc2c1C(=O)c1cc(Br)c(O)c(Br)c1  serum uric acid (mouse, acute hyperuricaemia model; 1 mg/kg): 980 ± 208 µM
COc1ncc(-c2nc3c(n2C(C)C)[C@H](c2ccc(Cl)cc2)N(c2cc(Cl)cn(C)c2=O)C3=O)c(OC)n1  best overall response (International Working Group criteria; human acute myeloid leukemia patients; oral, 350 to 400 mg, response CR, high-dose, other doses): 8.3%
